Results from different studies.
A part holds a random share of what one study measured. Values joined by “and” are separate records of one study, mostly repeats; a detail may differ.

Set 1 — mode: inhibitor; concentration: 10 µM; baseline: control; endpoint: remaining activity
Target: Diamine acetyltransferase 1 (Homo sapiens, UniProt P21673)
Construct (P21673 1-171): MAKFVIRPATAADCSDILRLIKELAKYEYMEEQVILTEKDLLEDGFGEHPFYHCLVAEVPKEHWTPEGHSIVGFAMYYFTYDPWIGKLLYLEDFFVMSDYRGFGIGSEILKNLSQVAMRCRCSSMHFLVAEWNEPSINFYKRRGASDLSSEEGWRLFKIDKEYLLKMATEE
OCCc1ccc(O)c(O)c1: 84.1%
COc1cc(/C=C/C(=O)NCCc2ccc(O)cc2)ccc1O: 83.8%
COc1ccc(C[C@H]2COC(=O)[C@@H]2Cc2ccc(O[C@@H]3O[C@H](CO)[C@@H](O)[C@H](O)[C@H]3O)c(OC)c2)cc1OC: 96.2%
O=c1c(O[C@@H]2O[C@H](CO)[C@@H](O)[C@H](O)[C@H]2O)c(-c2ccc(O)cc2)oc2cc(O)cc(O)c12: 115%
CC(C)c1ccc2c(c1)CC[C@H]1[C@](C)(C(=O)O)CCC[C@]21C: 102%
COc1cc2c3c(cc4ccccc4c3c1OC)N(C)CC2: 81.6%
CC1=C(/C=C/C(C)=C/C=C/C(C)=C/C=C/C=C(C)/C=C/C=C(C)/C=C/C2=C(C)C[C@@H](O)CC2(C)C)C(C)(C)C[C@H](O)C1: 101%
COc1ccc(-c2cc(=O)c3c(OC)c(OC)c(OC)c(OC)c3o2)cc1O: 77.4%

Set 2 — cell line: mouse MPNST tumor cells; technique: high-content immunofluorescence imaging; measured: nuclear SOX9; concentration: 10 µM; time: 12 h; setting: mean of 2 replicates; baseline: DMSO control; reading: higher = more nuclear SOX9; endpoint: nuclear SOX9 intensity
CC(C)OC(=O)CCC/C=C\C[C@@H]1[C@@H](CC[C@@H](O)CCc2ccccc2)[C@H](O)C[C@@H]1O: 103 % of DMSO
Cc1nc(C#Cc2cccnc2)cs1: 118 % of DMSO
CCCCn1c(=O)c2[nH]c(C34CC5CC(CC3C5)C4)nc2n(CCCO)c1=O: 76.6 % of DMSO
OCCN(CCO)c1ccc(C(c2ccc(Cl)cc2)c2ccc(N(CCO)CCO)cc2)cc1: 88.9 % of DMSO
CCOC(=O)[N-]c1c[n+](N2CCOCC2)no1: 108 % of DMSO
COc1ccccc1CN[C@H]1CCCN[C@H]1c1ccccc1: 115 % of DMSO
Nc1ccc(C(=O)NCC(=O)O)cc1: 106 % of DMSO
Cc1ccsc1/C=C/C1=NCCCN1C: 97.1 % of DMSO
COc1nc(-c2ccc3c(c2)OCO3)n(-c2ccc(NC(=O)CSc3ccccc3)cc2)n1: 94.4 % of DMSO

Set 3 — technique: competition with immobilised ligand; concentration: 1 µM; endpoint: remaining binding
Compound: Cn1nc(C(F)(F)F)cc1-c1cnc(N2CCc3cc(S(=O)(=O)Nc4c(F)cc(Cl)cc4F)cc(N4CCCC4=O)c32)nc1
PIK3C2G (Homo sapiens, UniProt O75747); cell-free assay: 94%
MARK1 (Homo sapiens, UniProt Q9P0L2); cell-free assay: 92%
SLK (Homo sapiens, UniProt Q9H2G2); cell-free assay: 100%
GRK1 (Homo sapiens, UniProt Q15835); cell-free assay: 95%
FGFR3 (Homo sapiens, UniProt P22607); cell-free assay: 100%
PIK3CA (Homo sapiens, UniProt P42336, M1043I); cell-free assay: 89%
PIP4K2C (Homo sapiens, UniProt Q8TBX8); cell-free assay: 66%
PIK3CA (Homo sapiens, UniProt P42336, I800L); cell-free assay: 77%
MUSK (Homo sapiens, UniProt O15146); cell-free assay: 87%
CDKL5 (Homo sapiens, UniProt O76039); binding: 91%
SRPK2 (Homo sapiens, UniProt P78362); binding: 34%
EIF2AK1 (Homo sapiens, UniProt Q9BQI3); cell-free assay: 100%
MAP3K12 (Homo sapiens, UniProt Q12852); cell-free assay: 72%
CAMK2G (Homo sapiens, UniProt Q13555); cell-free assay: 95%
CSNK1G3 (Homo sapiens, UniProt Q9Y6M4); cell-free assay: 81%
ULK2 (Homo sapiens, UniProt Q8IYT8); cell-free assay: 74%
CAMK1D (Homo sapiens, UniProt Q8IU85); cell-free assay: 99%
PRKCI (Homo sapiens, UniProt P41743); cell-free assay: 94%
KIT (Homo sapiens, UniProt P10721, V559D); cell-free assay: 99%
MAPK8 (Homo sapiens, UniProt P45983); cell-free assay: 100%
TGFBR1 (Homo sapiens, UniProt P36897); cell-free assay: 100%
TRPM6 (Homo sapiens, UniProt Q9BX84); cell-free assay: 79%

Set 4 — mode: degrader; time: 24 h; endpoint: remaining protein level
SMILES: C[C@@H]1CN(c2ccc(-c3cc(C(=O)NCCOCCOCCOCCOCCNC(=O)/C=C/c4[nH]cc(C(=O)N[C@@H](CC(N)=O)c5ccc(F)c(Cl)c5)c4-c4ccc(Cl)cc4F)ccc3F)cc2NC(=O)c2c[nH]c(=O)cc2C(F)(F)F)C[C@H](C)N1C
WDR5/DCAF1: WDR5/DCAF1 (Homo sapiens, UniProt P61964+Q9Y4B6)
WDR5: WD repeat-containing protein 5 (WDR5, Homo sapiens, UniProt P61964)
WDR5/DCAF1; HiBiT luminescence; 10000 nM: 92% and 88.4% and 93.3%
WDR5/DCAF1; HiBiT luminescence; 13.3 nM: 102% and 97.2% and 89%
WDR5; Jess capillary immunoassay, measured: WDR5 over vinculin; 141 nM; baseline: DMSO: 107% and 64.3% and 92.7% and 62.1% and 62% and 78.8%
WDR5/DCAF1; HiBiT luminescence; 227 nM: 97% and 88.7% and 83.1%
WDR5; Jess capillary immunoassay, measured: WDR5 over vinculin; 777 nM; baseline: DMSO: 67.5% and 87% and 50.8% and 81.6% and 54% and 63.9%

Some of these lines once more (set 3):
KIT (Homo sapiens, UniProt P10721, V559D); cell-free assay: 99%
CAMK1D (Homo sapiens, UniProt Q8IU85); cell-free assay: 99%
TGFBR1 (Homo sapiens, UniProt P36897); cell-free assay: 100%
PIP4K2C (Homo sapiens, UniProt Q8TBX8); cell-free assay: 66%
CDKL5 (Homo sapiens, UniProt O76039); binding: 91%
PIK3CA (Homo sapiens, UniProt P42336, I800L); cell-free assay: 77%
PIK3C2G (Homo sapiens, UniProt O75747); cell-free assay: 94%
